# Experimental data of several laboratories.
# Every numbered part comes from another study and shows a few of its results, in no order. Substitutions count along the parent as printed.

# Sample 1
# Target: CCNF, cyclin fold, Cln2 fusion (human)
# Technique: yeast growth competition, sequencing
# Matrix: yeast
# Notes: strong parent motif
# Baseline: not given
# Direction: higher = stronger binding
# Starting sequence: MICAL3 docking peptide (human); LQLRRQLSFSEDS
Change,normalised enrichment score
LQLRVQLSFSEDS [R5V],0.242
LQLRLQLSFSEDS [R5L],0.479
LQLRRQLSESEDS [F9E],-0.168
LQLRRQLSFSTDS [E11T],5.48
LQLRRQLVFSEDS [S8V],8.07
LQLRIQLSFSEDS [R5I],0.392
LQLRHQLSFSEDS [R5H],0.0473
LQLARQLSFSEDS [R4A],4.41
LQLRRQLSFTEDS [S10T],5.21
LQLRRWLSFSEDS [Q6W],1.94
LQCRRQLSFSEDS [L3C],7
LLLRRQLSFSEDS [Q2L],5.5
LQLRRQLSQSEDS [F9Q],0.248
LQLRRQESFSEDS [L7E],-0.0913
LQLRRQLSFMEDS [S10M],5.56
LQLRRQLMFSEDS [S8M],7.77
LQLRRQLSFSERS [D12R],4.98
LELRRQLSFSEDS [Q2E],4.34
LQLRRQLRFSEDS [S8R],8.01
LQLRRQLWFSEDS [S8W],7.8
LQLGRQLSFSEDS [R4G],2.55
LQLRRQLSFGEDS [S10G],6.48
LQLRRQLSFSWDS [E11W],5.9
LCLRRQLSFSEDS [Q2C],5.39
LQLRRQLCFSEDS [S8C],7.59

# Sample 2
# Target: ABI1, truncated, D143A, DHFR fusion (Arabidopsis thaliana)
# Technique: DHFR PCA, deep sequencing
# Matrix: yeast
# Notes: methotrexate growth selection, single substitutions
# Added: (+)-ABA 0.032 µM
# Baseline: wild-type fitted maximum
# Direction: higher = stronger binding
# Starting sequence: PYL1, truncated, DHFR fusion (Arabidopsis thaliana); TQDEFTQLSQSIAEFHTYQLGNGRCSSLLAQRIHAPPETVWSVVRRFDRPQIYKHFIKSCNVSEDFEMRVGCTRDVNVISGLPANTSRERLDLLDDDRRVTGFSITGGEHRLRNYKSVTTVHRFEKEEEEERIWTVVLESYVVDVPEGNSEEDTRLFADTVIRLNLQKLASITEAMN
Change,relative binding score
T1E,27.6%
L164A,11.4%
G108R,1.07%
L8K,1.73%
I79F,21.9%
E38H,-0.656%
Y53K,-5.43%
R155Y,-3.5%
L169Y,-5.77%
T154P,-2.08%
N177Q,10.7%
T17D,-5.93%
L138Y,-1.63%
L166E,4.18%
F124V,29.6%

# Sample 3
# Target: Histone acetyltransferase KAT6A, winged helix 1, GST fusion (KAT6A, Homo sapiens, UniProt Q92794, residues 1-85)
# Technique: protein binding microarray
# Molecule type: double-stranded DNA, one strand shown
# Matrix: in vitro
# Tested at: not given
# Notes: 8-mer, flanks averaged, mean of 2 arrays, mostly near background
# Baseline: not given
# Direction: higher = stronger binding
# Residues (chain): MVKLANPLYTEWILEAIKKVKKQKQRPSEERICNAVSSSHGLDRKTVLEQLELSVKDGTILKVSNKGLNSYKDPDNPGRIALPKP
Oligonucleotide,E-score
TAGTGCCA,-0.0579
CTGGCAGA,-0.24
CTTGTGAA,-0.256
GACCAAAC,0.0416
GCTCGTGA,-0.147
GGTTGACA,-0.0182
CAGCAACA,-0.229
CAGTAACA,0.0523
CGAAGTTC,-0.0775
ACGTAGTA,0.0357
CGGCATAA,0.23
AAACCGCG,0.317
AAGACCGG,0.116
AATCATTG,-0.261
AGGACCCT,-0.145
GTCCGGCA,0.144
ACAGTCCG,-0.0488
AGAGCCGC,0.314
CTTCCAAG,-0.201
ACTCAGCA,-0.136
CTATTCTC,0.0157
ACAAAACC,0.00424
ATGAGGCG,0.211
AGCTCGCC,0.141
GAAAATCA,-0.0707

# Sample 4
# Target: Centromere-binding protein 1, full length, N-terminal tag (CBF1, Saccharomyces cerevisiae, UniProt P17106, residues 1-351)
# Chain of UniProt P17106 (whole entry, looked up): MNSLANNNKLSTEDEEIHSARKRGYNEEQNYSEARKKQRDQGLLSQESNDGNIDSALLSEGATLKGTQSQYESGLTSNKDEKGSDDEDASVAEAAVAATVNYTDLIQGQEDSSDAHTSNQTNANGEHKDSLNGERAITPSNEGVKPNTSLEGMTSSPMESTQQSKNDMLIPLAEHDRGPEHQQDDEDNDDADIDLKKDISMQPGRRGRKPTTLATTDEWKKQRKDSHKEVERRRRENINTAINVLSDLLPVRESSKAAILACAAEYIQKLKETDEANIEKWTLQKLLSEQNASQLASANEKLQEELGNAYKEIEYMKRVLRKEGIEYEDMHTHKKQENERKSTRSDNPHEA
# Technique: protein-binding microarray
# Molecule type: double-stranded DNA, one strand shown
# Matrix: in vitro
# Tested at: 0.8 µM
# Notes: whole 60-bp probe, no competitor
# Direction: higher = stronger binding
# Shared flanks, not repeated: … GTCTTGATTCGCTTGACGCTGCTG
Oligonucleotide,fluorescence intensity
GAAGCCGCTTCGAGGCGGGTGAGCATAGGTTATTAG,510 a.u.
CTACTCCCAAATTCCCATCTGATGAACTGTTAGTTC,484 a.u.
GAATCTTGTACATGTACCACCACGATAAGGCTGTAG,515 a.u.
GAACGCCGTCCTCATGATGTGTTAGTTATACGTTAG,551 a.u.
GAAAATAATAATATACACGTTATCATTTTTTATTAG,868 a.u.
GAAATATATTATGCTCACGTGATGACCACGTGATAG,28800 a.u.
GAATGGAAGACCAAACACGCCATTTCTTAGAAATAG,504 a.u.
GAACTTTTGTTTTAACACGTTGAGACTATCTAATAG,580 a.u.
GAATGCAGTGATTATCACGTGATCCGAACTGTTTAG,37800 a.u.
CTAGAATTCCTTTGTAACGTGCAAAGCATTTTATTC,697 a.u.
GAAGCGTGTCCCCCTCACGTTTTTAATCATTTGTAG,626 a.u.
GAAGCCACACATTTTCGCCTGATCTCTAGCCGCTAG,509 a.u.
GAAAAAAAGACTTGTGATGTCATACACAGATTGTAG,610 a.u.
GAACCTGCCTCCCGTCATGCCAAGAGCCGTACTTAG,513 a.u.
CTATGTGAATATGAGCGCACGCAATACATTGAGTTC,531 a.u.
GAAGCAGTATGCACTTGGGTGACATGTAAAAGTTAG,523 a.u.
GAAATTCAAGCCATTCACACCATGAGGAACGGATAG,504 a.u.
TGTACGAAGCTATATCGCGTGTATATAGTAGTTAGG,580 a.u.
GAAAAACGAGCCACTCACGTGAAAACATATAGATAG,3540 a.u.
GAAATCAGCTAAAGCATCAGAAGCGAAATGGCATAG,523 a.u.

# Sample 5
# Target: CREBRF, bZIP domain (human)
# Technique: DHFR protein complementation
# Matrix: yeast
# Notes: single substitutions, most at no-binding floor
# Baseline: wild-type JUN-FOS pair
# Direction: higher = stronger binding
# Starting sequence: JUN, bZIP domain (human); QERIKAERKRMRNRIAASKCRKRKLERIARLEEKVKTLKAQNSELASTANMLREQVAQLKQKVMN; partner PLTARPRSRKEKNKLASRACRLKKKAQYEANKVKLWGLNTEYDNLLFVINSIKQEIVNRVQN
Change,binding fitness
L45T,-1.53 natural log
I28T,-1.42 natural log
K36L,-1.49 natural log
S47G,-1.39 natural log
E54Y,-1.5 natural log
K34S,-1.57 natural log
R30K,-1.39 natural log
E44V,-1.39 natural log
E44C,-1.55 natural log
A46I,-1.42 natural log
L45Y,-1.53 natural log
K34G,-1.47 natural log
R53G,-1.47 natural log
R30P,-1.33 natural log
I28Q,-1.33 natural log
V35T,-1.56 natural log
A29Q,-1.47 natural log
R53S,-1.45 natural log
M51A,-1.41 natural log
K34H,-1.39 natural log
T37N,-1.49 natural log
L31M,-1.54 natural log
M51N,-1.5 natural log
A29K,-1.49 natural log
A46E,-1.22 natural log

# Sample 6
# Partner: ARF19 948-1086 (Arabidopsis thaliana, UniProt Q8RYC8)
# Technique: two-hybrid
# Baseline: out of 4 tests
# Direction: higher = firmer interaction
# B1: ARF4 660-788 (Arabidopsis thaliana, UniProt Q9ZTX9); chain QSSSKRICTKVHKQGSQVGRAIDLSRLNGYDDLLMELERLFNMEGLLRDPEKGWRILYTDSENDMMVVGDDPWHDFCNVVWKIHLYTKEEVENANDDNKSCLEQAALMMEASKSSSVSQPDSSPTITRV
# B2: ARF5 788-902 (Arabidopsis thaliana, UniProt P93024); chain ATPRVRTYTKVQKTGSVGRSIDVTSFKDYEELKSAIECMFGLEGLLTHPQSSGWKLVYVDYESDVLLVGDDPWEEFVGCVRCIRILSPTEVQQMSEEGMKLLNSAGINDLKTSVS
# B3: ARF7 1030-1164 (Arabidopsis thaliana, UniProt P93022); chain PAQTQRMRTYTKVQKRGSVGRSIDVNRYRGYDELRHDLARMFGIEGQLEDPQTSDWKLVYVDHENDILLVGDDPWEEFVNCVQSIKILSSAEVQQMSLDGNFAGVPVTNQACSGGDSGNAWRGHYDDNSATSFNR
# B4: ARF6 790-935 (Arabidopsis thaliana, UniProt Q9ZTX8); chain SENPQSNTFVKVYKSGSFGRSLDISKFSSYHELRSELARMFGLEGQLEDPVRSGWQLVFVDRENDVLLLGDDPWPEFVSSVWCIKILSPQEVQQMGKRGLELLNSAPSSNNVDKLPSNGNCDDFGNRSDPRNLGNGIASVGGSFNY
# B5: ARF2 727-859 (Arabidopsis thaliana, UniProt Q94JM3); chain TKTNSSRSCTKVHKQGIALGRSVDLSKFQNYEELVAELDRLFEFNGELMAPKKDWLIVYTDEENDMMLVGDDPWQEFCCMVRKIFIYTKEEVRKMNPGTLSCRSEEEAVVGEGSDAKDAKSASNPSLSSAGNS
# B6: IAA28 (Arabidopsis thaliana, UniProt Q9XFM0); chain MEEEKRLELRLAPPCHQFTSNNNINGSKQKSSTKETSFLSNNRVEVAPVVGWPPVRSSRRNLTAQLKEEMKKKESDEEKELYVKINMEGVPIGRKVNLSAYNNYQQLSHAVDQLFSKKDSWDLNRQYTLVYEDTEGDKVLVGDVPWEMFVSTVKRLHVLKTSHAFSLSPRKHGKE
# B7: IAA32 (Arabidopsis thaliana, UniProt Q8RYC6); chain MDPNTPADFFKGSSKFHTYYSQTKKGGGVIDLGLSLRTIQHETYLPPARMIGLDGYGELIDWSQPSYNSITQLKSEDTGHQRLAQGYYNNEGESRGKYAYVKVNLDGLVVGRKVCLVDQGAYATLALQLNDMFGMQTVSGLRLFQTESEFSLVYRDREGIWRNVGDVPWKEFVESVDRMRIARRNDALLPF
# B8: ARF16 570-670 (Arabidopsis thaliana, UniProt Q93YR9); chain SPCSKKVHDASGLETGHCKVFMESDDVGRTLDLSVLGSYEELSRKLSDMFGIKKSEMLSSVLYRDASGAIKYAGNEPFSEFLKTARRLTILTEQGSESVVV
# B9: ARF10 575-693 (Arabidopsis thaliana, UniProt Q9SKN5); chain LQGLETGHCKVFMESEDVGRTLDLSVIGSYQELYRKLAEMFHIEERSDLLTHVVYRDANGVIKRIGDEPFSDFMKATKRLTIKMDIGGDNVRKTWITGIRTGENGIDASTKTGPLSIFA
# B10: ARF14 497-605 (Arabidopsis thaliana, UniProt Q9LQE8); chain SPTEIQSKQFSSTRTCTKVQMQGVTIGRAVDLSVLNGYDQLILELEKLFDLKGQLQARNQWEIAFTNNEEDKMLVGEDPWPEFCNMVKKIFIYSKEEVKNLKSRKSLSS
# Construct (chain): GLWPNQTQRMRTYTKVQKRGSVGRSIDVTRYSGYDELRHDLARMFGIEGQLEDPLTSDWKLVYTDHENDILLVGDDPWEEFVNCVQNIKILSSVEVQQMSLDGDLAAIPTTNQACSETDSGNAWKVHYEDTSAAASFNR
Molecule,positive tests
B1 (ARF4 660-788),0
B2 (ARF5 788-902),0
B3 (ARF7 1030-1164),1
B4 (ARF6 790-935),0
B5 (ARF2 727-859),0
B6 (IAA28),4
B7 (IAA32),4
B8 (ARF16 570-670),0
B9 (ARF10 575-693),0
B10 (ARF14 497-605),0

# Excerpt of the above (sample 1):
Change,normalised enrichment score
LQLRRQLSFMEDS [S10M],5.56
LQLRRQLMFSEDS [S8M],7.77
LQLRRQLSFSERS [D12R],4.98
LELRRQLSFSEDS [Q2E],4.34
LQLRRQLRFSEDS [S8R],8.01
LQLRRQLWFSEDS [S8W],7.8
